{"data": "Results pooled from the literature", "note": "Every numbered part comes from another study and shows a few of its results, in no order. Several values in a cell are separate wells, animals, samples, runs or records.", "UniProt P42336, sequence (whole entry, unmodified, looked up)": "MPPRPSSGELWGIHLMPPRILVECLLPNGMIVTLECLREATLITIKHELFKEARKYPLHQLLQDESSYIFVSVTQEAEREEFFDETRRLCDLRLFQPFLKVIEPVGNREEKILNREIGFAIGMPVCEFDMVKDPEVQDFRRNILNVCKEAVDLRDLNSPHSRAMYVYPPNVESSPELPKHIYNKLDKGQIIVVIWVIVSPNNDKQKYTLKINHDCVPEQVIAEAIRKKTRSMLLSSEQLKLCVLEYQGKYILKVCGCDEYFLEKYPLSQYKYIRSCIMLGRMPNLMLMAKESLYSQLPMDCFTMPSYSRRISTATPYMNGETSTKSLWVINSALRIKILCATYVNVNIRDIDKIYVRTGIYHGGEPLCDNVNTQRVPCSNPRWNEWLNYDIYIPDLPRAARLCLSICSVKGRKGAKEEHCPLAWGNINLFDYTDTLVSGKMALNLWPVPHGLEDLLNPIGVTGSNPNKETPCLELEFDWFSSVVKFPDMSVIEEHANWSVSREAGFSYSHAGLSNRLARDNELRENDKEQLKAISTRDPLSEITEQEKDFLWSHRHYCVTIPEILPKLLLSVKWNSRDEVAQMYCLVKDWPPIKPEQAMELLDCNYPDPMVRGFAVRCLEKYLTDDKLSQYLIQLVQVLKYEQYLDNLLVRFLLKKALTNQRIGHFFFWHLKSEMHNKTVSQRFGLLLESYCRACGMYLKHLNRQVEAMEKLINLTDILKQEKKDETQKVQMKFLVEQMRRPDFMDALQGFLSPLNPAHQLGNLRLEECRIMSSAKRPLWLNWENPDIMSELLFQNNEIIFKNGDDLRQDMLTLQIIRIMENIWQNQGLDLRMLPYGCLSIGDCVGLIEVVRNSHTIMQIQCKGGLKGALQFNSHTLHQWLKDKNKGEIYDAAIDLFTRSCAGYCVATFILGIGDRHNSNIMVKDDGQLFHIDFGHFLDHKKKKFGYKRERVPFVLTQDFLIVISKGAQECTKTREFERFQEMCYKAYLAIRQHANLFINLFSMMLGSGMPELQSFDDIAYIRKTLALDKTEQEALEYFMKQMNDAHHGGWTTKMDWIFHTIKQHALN", "UniProt P08069, sequence (whole entry, looked up)": "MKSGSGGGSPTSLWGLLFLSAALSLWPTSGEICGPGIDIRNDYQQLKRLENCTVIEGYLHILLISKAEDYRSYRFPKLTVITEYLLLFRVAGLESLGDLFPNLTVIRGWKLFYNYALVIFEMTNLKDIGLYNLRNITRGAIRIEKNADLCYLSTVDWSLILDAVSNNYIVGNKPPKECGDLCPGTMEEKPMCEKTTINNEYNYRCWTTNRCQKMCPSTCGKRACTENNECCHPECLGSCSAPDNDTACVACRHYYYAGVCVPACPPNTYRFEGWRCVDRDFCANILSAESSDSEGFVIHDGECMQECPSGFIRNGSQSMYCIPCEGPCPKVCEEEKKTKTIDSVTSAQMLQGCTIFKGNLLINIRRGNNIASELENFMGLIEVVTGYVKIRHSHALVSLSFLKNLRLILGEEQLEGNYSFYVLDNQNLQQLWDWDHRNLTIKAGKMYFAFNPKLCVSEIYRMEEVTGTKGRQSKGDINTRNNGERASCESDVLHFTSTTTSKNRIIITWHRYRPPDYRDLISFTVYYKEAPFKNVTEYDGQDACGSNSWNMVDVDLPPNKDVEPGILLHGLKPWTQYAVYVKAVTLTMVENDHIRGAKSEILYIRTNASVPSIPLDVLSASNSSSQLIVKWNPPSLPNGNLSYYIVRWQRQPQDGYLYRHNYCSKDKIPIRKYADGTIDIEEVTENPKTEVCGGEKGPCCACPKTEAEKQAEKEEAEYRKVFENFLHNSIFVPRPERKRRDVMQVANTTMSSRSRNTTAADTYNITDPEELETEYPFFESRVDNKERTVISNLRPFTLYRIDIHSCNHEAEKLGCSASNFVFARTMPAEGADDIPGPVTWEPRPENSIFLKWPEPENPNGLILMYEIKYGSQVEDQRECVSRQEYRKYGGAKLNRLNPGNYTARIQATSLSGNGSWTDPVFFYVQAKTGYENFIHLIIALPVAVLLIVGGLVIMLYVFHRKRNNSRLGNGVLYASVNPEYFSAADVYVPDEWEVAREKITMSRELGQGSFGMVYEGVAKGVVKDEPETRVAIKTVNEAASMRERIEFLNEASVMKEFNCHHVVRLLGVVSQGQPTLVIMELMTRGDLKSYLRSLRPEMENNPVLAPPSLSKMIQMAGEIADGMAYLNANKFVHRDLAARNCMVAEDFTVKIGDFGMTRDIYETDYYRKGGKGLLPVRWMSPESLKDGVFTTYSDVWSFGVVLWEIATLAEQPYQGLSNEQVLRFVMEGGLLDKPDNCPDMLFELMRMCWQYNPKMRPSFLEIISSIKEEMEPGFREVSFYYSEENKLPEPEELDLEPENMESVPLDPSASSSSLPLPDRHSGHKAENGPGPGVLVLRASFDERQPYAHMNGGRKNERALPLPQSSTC"}
{"data": "Series 1", "Compound": "NS(=O)(=O)c1cc(NC(=O)C2(c3ccccc3Cl)CC2)ccc1Oc1cccc(Cl)c1", "effect on": "cell-free assay", "technique": "competition with immobilised ligand", "tested at": "1 µM"}
{"target": "PRKACB (Homo sapiens, UniProt P22694)", "remaining binding [%]": 88}
{"target": "FLT3 (Homo sapiens, UniProt P36888, N841I)", "remaining binding [%]": 32}
{"target": "IGF1R (Homo sapiens, UniProt P08069)", "remaining binding [%]": 80}
{"target": "PIK3CA (Homo sapiens, UniProt P42336, H1047L)", "remaining binding [%]": 98}
{"data": "Series 2", "target": "Tyrosine-protein kinase BTK (BTK, Homo sapiens, UniProt Q06187)", "effect on": "enzyme activity", "mode": "inhibitor", "tested at": "0.5 µM", "baseline": "control", "UniProt Q06187, sequence (whole entry, looked up)": "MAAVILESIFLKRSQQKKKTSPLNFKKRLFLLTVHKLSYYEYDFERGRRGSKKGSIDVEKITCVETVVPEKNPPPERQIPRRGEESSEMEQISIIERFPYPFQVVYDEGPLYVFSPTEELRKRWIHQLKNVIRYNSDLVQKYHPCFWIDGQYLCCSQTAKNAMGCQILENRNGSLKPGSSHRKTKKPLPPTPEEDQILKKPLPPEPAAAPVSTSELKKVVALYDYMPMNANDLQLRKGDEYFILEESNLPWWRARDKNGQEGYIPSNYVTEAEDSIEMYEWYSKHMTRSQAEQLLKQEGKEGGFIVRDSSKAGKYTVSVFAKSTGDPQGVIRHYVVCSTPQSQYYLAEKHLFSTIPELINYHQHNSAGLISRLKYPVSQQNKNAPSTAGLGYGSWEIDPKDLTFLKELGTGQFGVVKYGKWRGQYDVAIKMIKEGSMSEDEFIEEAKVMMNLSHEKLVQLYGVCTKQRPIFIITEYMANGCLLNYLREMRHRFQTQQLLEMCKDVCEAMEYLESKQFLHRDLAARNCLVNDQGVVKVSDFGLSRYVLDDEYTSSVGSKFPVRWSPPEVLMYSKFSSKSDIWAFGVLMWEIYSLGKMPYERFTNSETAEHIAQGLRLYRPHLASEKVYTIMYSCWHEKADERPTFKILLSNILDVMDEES"}
{"SMILES": "Cn1c2ccccc2c2c3c(c4c5ccccc5n(CCC#N)c4c21)CNC3=O", "remaining activity [%]": 22}
{"SMILES": "O=C(CCCc1ccc(-c2ccccc2F)cc1)Nc1ccc(O)cc1", "remaining activity [%]": 98.2}
{"SMILES": "Nc1ccc2ncnc(NCCc3ccc(Oc4ccccc4)cc3)c2c1", "remaining activity [%]": 96.8}
{"SMILES": "O=C1NC(=O)C(c2cn(CCCn3ccnc3)c3ccccc23)=C1Nc1ccccc1", "remaining activity [%]": 105}
{"SMILES": "N#CC(C#N)=C(N)/C(C#N)=C/c1ccc(O)cc1", "remaining activity [%]": 99.7}
{"SMILES": "OCC(O)CCON=C1C(c2c(O)[nH]c3ccccc23)=Nc2ccccc21 (centres unmarked)", "remaining activity [%]": 24.1}
{"SMILES": "COc1ccc(CNC(=O)Nc2ncc([N+](=O)[O-])s2)cc1", "remaining activity [%]": 102}
{"SMILES": "COc1ccc(C(=O)Nc2sc3c(c2C(N)=O)CCCC3)cc1OC", "remaining activity [%]": 104}
{"SMILES": "NCCNc1ncc(C(N)=O)c(Nc2cccc(C(F)(F)F)c2)n1", "remaining activity [%]": 82.3}
{"SMILES": "COc1ccc(OC)c2c(=S)c3ccccc3[nH]c12", "remaining activity [%]": 102}
{"SMILES": "CO[C@H]1C[C@@H]2CC[C@@H](C)[C@@](O)(O2)C(=O)C(=O)N2CCCC[C@H]2C(=O)O[C@H]([C@H](C)C[C@@H]2CC[C@@H](O)[C@H](OC)C2)CC(=O)[C@H](C)/C=C(\\C)[C@@H](O)[C@@H](OC)C(=O)[C@H](C)C[C@H](C)/C=C/C=C/C=C/1C", "remaining activity [%]": 101}
{"SMILES": "CC(C)[C@H](CO)Nc1nc(Nc2cc(N)cc(Cl)c2)c2ncn(C(C)C)c2n1", "remaining activity [%]": 33}
{"SMILES": "C#Cc1cccc(Nc2ncnc3cc(OCCOC)c(OCCOC)cc23)c1", "remaining activity [%]": 86.2}
{"SMILES": "CN(C)c1ccc(C=C2C(=O)Nc3ccccc32)cc1", "remaining activity [%]": 104}
{"SMILES": "Cc1nc(-c2ccccc2)c(-c2ccncc2)o1", "remaining activity [%]": 98.3}
{"SMILES": "COc1cc2ncnc(Nc3ccc(Oc4ccccc4)cc3)c2cc1OC", "remaining activity [%]": 38.8}
{"data": "Series 3", "SMILES": "CCCCCCCCCCCCCCCCOP(=O)([O-])OCC[N+](C)(C)C"}
{"target or system": "THP-1", "effect on": "host cell growth", "tested at": "0.4 µM", "inhibition": "-2.62% and -0.63% and -0.4% and -0.52% and 2.34% and -0.18%"}
{"target or system": "Leishmania donovani", "effect on": "parasite growth", "technique": "imaging", "cells": "THP-1", "tested at": "4 nM", "notes": "intracellular, amastigote", "inhibition": "6% and -4% and 2% and 1%"}
{"target or system": "Leishmania donovani", "effect on": "parasite growth", "technique": "imaging", "cells": "THP-1", "tested at": "20 nM", "notes": "intracellular, amastigote", "inhibition": "3% and 2% and 4% and 6%"}
{"target or system": "THP-1", "effect on": "host cell growth", "tested at": "10 µM", "inhibition": "24% and 20% and 35% and 33%"}
{"data": "Series 4", "organism": "Sarcocystis neurona", "effect on": "parasite growth", "tested at": "10 µM", "notes": "secondary screen"}
{"Structure (SMILES)": "O=C1CN(/N=C/c2ccc(-c3ccc([N+](=O)[O-])cc3)o2)C(O)=N1", "inhibition [%]": 48.3}
{"Structure (SMILES)": "CC(=O)OCC(=O)[C@@]1(O)CC[C@H]2[C@@H]3CCC4=CC(=O)CC[C@]4(C)[C@H]3C(=O)C[C@@]21C", "inhibition [%]": -1.9}
{"Structure (SMILES)": "c1ccc(-c2ccc(C(c3ccccc3)n3ccnc3)cc2)cc1 (centres unmarked)", "inhibition [%]": 35.3}
{"Structure (SMILES)": "CC(COc1ccccc1Cc1ccccc1)N1CCCCC1.O=P(O)(O)O (centres unmarked)", "inhibition [%]": 12.2}
{"Structure (SMILES)": "NC1CCN(c2nc3c(cc2F)c(=O)c(C(=O)O)cn3-c2ccc(F)cc2F)C1 (centres unmarked)", "inhibition [%]": -0.138}
{"Structure (SMILES)": "CC(C)OC(=O)CCC/C=C\\C[C@@H]1[C@@H](CC[C@@H](O)CCc2ccccc2)[C@H](O)C[C@@H]1O", "inhibition [%]": -28.7}
{"Structure (SMILES)": "CCCNCC(O)COc1ccccc1C(=O)CCc1ccccc1 (centres unmarked)", "inhibition [%]": 63.8}
{"data": "Series 5", "cell line": "HuT78", "tested at": "2 µM", "time": "48 h", "baseline": "untreated"}
{"Compound": "CN1CCN(c2ccc(C(=O)Nc3n[nH]c4ccc(Cc5cc(F)cc(F)c5)cc34)c(NC3CCOCC3)c2)CC1", "viability [%]": 114}
{"Compound": "CCCCCCCCc1ccc(CCC(N)(CO)CO)cc1", "viability [%]": 91.1}
{"Compound": "Cc1ccc(Nc2nccc(N(C)c3ccc4c(C)n(C)nc4c3)n2)cc1S(N)(=O)=O", "viability [%]": 115}
{"Compound": "CC[C@@H]1C(=O)N(C)c2cnc(Nc3ccc(C(=O)N[C@H]4CC[C@H](N5CCN(CC6CC6)CC5)CC4)cc3OC)nc2N1C(C)C", "viability [%]": 14.6}
{"note": "Excerpt of the above (series 2):"}
{"SMILES": "CC(C)[C@H](CO)Nc1nc(Nc2cc(N)cc(Cl)c2)c2ncn(C(C)C)c2n1", "remaining activity [%]": 33}
{"SMILES": "C#Cc1cccc(Nc2ncnc3cc(OCCOC)c(OCCOC)cc23)c1", "remaining activity [%]": 86.2}
{"SMILES": "CN(C)c1ccc(C=C2C(=O)Nc3ccccc32)cc1", "remaining activity [%]": 104}
{"SMILES": "Cc1nc(-c2ccccc2)c(-c2ccncc2)o1", "remaining activity [%]": 98.3}
